# Measurements collected from several papers.
# Parts stem from different laboratories: compare values within a part only.

# Series 1 — method: RNA Bind-n-Seq; form: RNA; medium: in vitro; tested at: 200 nM; setting: whole 134-nt RNA, ends assumed; with: 150 mM LiCl; reference: input library; reading: higher = stronger binding; library: 7-deaza-guanosine replaces G
# Target: Ras GTPase-activating protein-binding protein 1, full length (G3BP1, Homo sapiens, UniProt Q13283)
# UniProt Q13283, sequence (whole entry, looked up): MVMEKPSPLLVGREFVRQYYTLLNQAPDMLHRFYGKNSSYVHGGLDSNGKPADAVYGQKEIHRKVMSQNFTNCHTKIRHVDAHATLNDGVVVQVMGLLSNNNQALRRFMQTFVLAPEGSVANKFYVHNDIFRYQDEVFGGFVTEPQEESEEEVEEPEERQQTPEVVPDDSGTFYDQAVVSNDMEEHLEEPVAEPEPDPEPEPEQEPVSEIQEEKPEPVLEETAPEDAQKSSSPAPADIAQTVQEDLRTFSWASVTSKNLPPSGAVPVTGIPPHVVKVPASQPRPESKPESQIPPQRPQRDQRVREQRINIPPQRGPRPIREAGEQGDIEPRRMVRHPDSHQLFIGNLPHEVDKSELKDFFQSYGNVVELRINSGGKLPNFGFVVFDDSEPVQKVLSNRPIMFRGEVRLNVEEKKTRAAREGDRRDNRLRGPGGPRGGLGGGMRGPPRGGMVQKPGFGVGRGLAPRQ
# Constant ends, left off below: GGGAGUUCUACAGUCCGACGAUC … UGGAAUUCUCGGGUGUCAAGG
Oligonucleotide,log2 enrichment
GUCCUGUGCUACACAUCGUAUGUACCGAAUCGGGCCCCCGGCCCCCGGGGCCCCCGGGGAAAGUAUUAUGUUACGCCGUUCGGAUCUGCA,-1.44
UCCUCAAGUCCUGUGCUACACAUCGUAUGUACCGAAUCGGCGGGCGGCGGGGAAAGUAUUAUGUUACGCCGUUCGGAUCUGCACUUCCAG,1.14
AGUCCUGUGCUACACAUCGUAUGUACCGAAUCGGGUUUUGGGGUUUUGGUUUUGGGGAAAGUAUUAUGUUACGCCGUUCGGAUCUGCACU,-0.587
CUCAAGUCCUGUGCUACACAUCGUAUGUACCGAAUCGGUGGUGGUUUUUUUGGAAAGUAUUAUGUUACGCCGUUCGGAUCUGCACUUCCA,0.623
GUCCUGUGCUACACAUCGUAUGUACCGAAUCGGGUUUUUUGGGUUUUUUGGUUUUUUGGAAAGUAUUAUGUUACGCCGUUCGGAUCUGCA,-1.23
CAAGUCCUGUGCUACACAUCGUAUGUACCGAAUCGGGUUUGGGUUUUUGGGUGGGAAAGUAUUAUGUUACGCCGUUCGGAUCUGCACUUC,-0.414
CUCAAGUCCUGUGCUACACAUCGUAUGUACCGAAUCGGUUUGGAAAGGUUUGGAAAGUAUUAUGUUACGCCGUUCGGAUCUGCACUUCCA,-0.16
AGUCCUGUGCUACACAUCGUAUGUACCGAAUCGGGGUUUGGGGAAAGGGGUUUGGGGAAAGUAUUAUGUUACGCCGUUCGGAUCUGCACU,-0.84

# Series 2 — method: RNA Bind-n-Seq; form: RNA; medium: in vitro; tested at: not given; reference: input RNA pool; reading: higher = stronger binding
# Target: RING finger protein unkempt homolog, zinc fingers 1-6, GST-SBP tag (UNK, Homo sapiens, UniProt Q9C0B0, residues 30-357)
# UniProt Q9C0B0, sequence (30-357, looked up): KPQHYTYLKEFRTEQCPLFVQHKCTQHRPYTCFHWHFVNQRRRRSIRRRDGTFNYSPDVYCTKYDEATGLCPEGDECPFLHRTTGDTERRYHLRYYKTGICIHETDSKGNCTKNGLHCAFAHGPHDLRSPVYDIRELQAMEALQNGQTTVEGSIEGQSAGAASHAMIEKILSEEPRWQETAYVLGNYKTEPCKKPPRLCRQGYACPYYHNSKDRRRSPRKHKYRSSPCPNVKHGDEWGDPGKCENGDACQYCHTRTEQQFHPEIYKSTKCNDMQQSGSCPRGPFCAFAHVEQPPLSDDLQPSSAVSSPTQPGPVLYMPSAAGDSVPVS
# Setting: RNA with constant flanks, human and mouse sites, ends assumed
# Constant ends, left off below: GGGAGUUCUACAGUCCGACGAUC … CAACAGAGGAUUGAGCAUCA
Oligonucleotide,bound/input enrichment [ratio]
UUUGAAGAGCAGUGUGUUGAAAUGUAUUUCAAUGAAAAAGAUGACAAAUUUCAUUCUGGGAGUGAAGAGAGAAUUCGUGUCACUUUUGAAAGAGUGGAACAGAUGUGCAUUCAGAUUAAA,0.192
AAGUGCCAUGAGAAAAUUUGCAUACUGCAAGGUGGUCCUAGCCACCUCCUUGAUUUGGGUACUCUUGGAUAUGUUCCUGCUGCUUUACUUCAGUGAAUGCAACAAAUGUGAUGAAAAAAA,0.172
CAGCUGCUUACACAAGAUGUAGAAAAAUUUUGUAACAGUGUAGUCGAUCUGUAUUCAAAUCUUAGUAAGCCAUUUUUAGACAUAGUUUUGUAUAUCUUUAAGUUAACGAGUGCAAUUGGA,19.9
AAAGAAGAUAUUGCAAUGUGGGAAGUAAAUGAAGCCUUUAGUCUGGUUGUACUAGCAAACAUUAAAAUGUUGGAGAUUGAUCCCCAAAAAGUGAAUAUCAAUGGAGGAGCUGUUUCUCUG,0.366
GGCGCAGCUGCCCUUGUGCCCGAGGCCCAGGACAGCCAGGUCACCAGCACCAAGAGUAAGUCCUCAGCCGAGGUCAAGGUCACCAUUAAGAGGACUCUGGUGGGGCCCCGGGGGAGCAGC,0.667
AAACCAAGGAAACGGAAACGGCAGAGGCUUGUCACAGCCAGAGUGCACUAUAAAAAAGUGAAGAAGGAGGACUUAACAAAAGACACACCCAGCUCGGAGGGAGAACUGCUGAUUCACAGG,0.22
CCGCCCGGGUCGUGGAGCCAGGAGCGACGUCACCGCCAUGGCGGGCAUCAAAGCUUUAAUUAGUUUGUCCUUUGGAGGAGCGAUCGGGCUGAUGUUCCUGAUGCUUGGAUGUGCCCUUCC,0.133
UCUGCGCGUGCGCCGGUGGCGGGACUCUGGGGAAAAUGGCUGCGUCUUCGAGUGGGAACUUAUAGAAAUGCUGGCAAUUUCAAGAAACCAAAAGUUGUUACAGGCUGGAGAGGAAAACCA,0.13

# Series 3 — method: universal PBM; form: double-stranded DNA, one strand shown; medium: in vitro; tested at: not given; reading: higher = stronger binding
# Target: Sal-like protein 4, full length isoform B (SALL4, Homo sapiens, UniProt Q9UJQ4-2, residues 1-616)
# Setting: 8-mer, flanks averaged, mean of replicates
# Residues (chain): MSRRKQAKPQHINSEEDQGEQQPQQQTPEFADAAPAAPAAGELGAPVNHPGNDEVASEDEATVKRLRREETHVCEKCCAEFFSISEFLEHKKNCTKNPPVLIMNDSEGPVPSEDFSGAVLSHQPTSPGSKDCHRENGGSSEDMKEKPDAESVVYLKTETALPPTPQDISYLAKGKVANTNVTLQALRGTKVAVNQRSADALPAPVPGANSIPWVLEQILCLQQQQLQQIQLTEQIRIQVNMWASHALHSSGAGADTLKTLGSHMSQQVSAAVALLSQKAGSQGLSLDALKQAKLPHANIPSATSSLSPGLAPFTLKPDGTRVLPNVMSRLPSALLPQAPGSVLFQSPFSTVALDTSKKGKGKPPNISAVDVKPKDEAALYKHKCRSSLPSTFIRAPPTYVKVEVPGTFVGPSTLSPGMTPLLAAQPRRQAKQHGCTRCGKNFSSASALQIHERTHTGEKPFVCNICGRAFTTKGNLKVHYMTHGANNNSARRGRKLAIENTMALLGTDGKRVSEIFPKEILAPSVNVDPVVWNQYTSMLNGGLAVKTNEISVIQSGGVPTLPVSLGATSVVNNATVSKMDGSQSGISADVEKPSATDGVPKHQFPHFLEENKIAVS
Oligonucleotide,E-score
AATGACTC,0.0599
AGGTCACG,-0.346
CGCCTTTA,0.00806
CCCTACAG,-0.102
AACAATGA,0.227
AGCGACTC,-0.243
ACTCGCCC,-0.253
GCGCCGAC,-0.182
ATGTCTTG,0.124
CCGTGTAC,-0.12
CTGCTGAC,-0.189
AGGAGCAG,-0.276
CTGAGAAC,-0.114
CGCAAAGA,0.0505
ATCGGGTG,-0.195
AGTACGAG,0.0991
ACATAGGC,0.148
CGAACGAC,-0.154
AGTGACTA,0.0798
TATCCCGA,-0.0593

# Series 4 — method: protein-binding microarray; form: double-stranded DNA, one strand shown; medium: in vitro; tested at: not given; reading: higher = stronger binding
# Target: Transcriptional repressor CTCF (CTCF, Homo sapiens, UniProt P49711, residues 1-727, full length assumed)
# UniProt P49711, sequence (whole entry, looked up): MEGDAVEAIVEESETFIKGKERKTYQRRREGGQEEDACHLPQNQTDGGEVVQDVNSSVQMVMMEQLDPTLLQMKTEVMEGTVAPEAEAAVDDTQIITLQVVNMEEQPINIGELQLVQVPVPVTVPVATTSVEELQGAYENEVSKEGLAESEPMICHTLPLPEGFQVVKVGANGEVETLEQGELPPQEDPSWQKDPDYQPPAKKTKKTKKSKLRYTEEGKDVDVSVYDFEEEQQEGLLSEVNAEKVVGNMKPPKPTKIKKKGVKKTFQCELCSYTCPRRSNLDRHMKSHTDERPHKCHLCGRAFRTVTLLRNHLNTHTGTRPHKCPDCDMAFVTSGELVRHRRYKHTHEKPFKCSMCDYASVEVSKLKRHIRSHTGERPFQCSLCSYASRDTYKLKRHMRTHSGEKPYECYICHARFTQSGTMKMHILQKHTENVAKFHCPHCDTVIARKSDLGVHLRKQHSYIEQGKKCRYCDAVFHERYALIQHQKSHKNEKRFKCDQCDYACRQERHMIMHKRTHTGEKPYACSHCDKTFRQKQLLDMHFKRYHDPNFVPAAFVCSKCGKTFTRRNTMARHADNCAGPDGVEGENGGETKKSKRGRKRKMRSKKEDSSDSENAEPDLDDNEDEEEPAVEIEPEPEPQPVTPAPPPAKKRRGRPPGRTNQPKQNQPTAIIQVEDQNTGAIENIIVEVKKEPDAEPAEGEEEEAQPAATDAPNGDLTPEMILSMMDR
# Setting: k-mer, scored over probes, only values ≥0.25
Oligonucleotide,E-score
AAAAGCTG,0.321
ACTCGTAA,0.28
ATCATGAT,0.269
AACAAATT,0.319
CGCCGCAA,0.277
AAAATTTT,0.311
ACGTATAA,0.326
ATTCATAC,0.266
ATACAAAC,0.307
ACGCGCGC,0.379
CGCATATC,0.319
AGCGCCCC,0.387
AAATAGTG,0.254
AACCACAT,0.322
AAATCAAA,0.268
ATAATTTA,0.427
ATTACAAT,0.295
TACATTAA,0.257
CTGCGCAC,0.268
ATTGTAGA,0.251
GTAATCTA,0.349
